Experimental data gathered from unrelated publications.
Compare with care: the assays were run in different laboratories. “And” joins repeats or separate records; there may be more than shown. ± gives the spread as reported.

CS(=O)(=O)c1ccc([C@@H](O)[C@@H](CF)NC(=O)C(Cl)Cl)cc1 — MRT(0-inf) (Arbor Acres chickens, plasma; oral, 20 mg/kg, with: quercetin 40 mg/kg pretreatment): 3.87 ± 0.17 h
C=CCN1CC(=O)N2[C@@H](Cc3ccc(O)cc3F)C(=O)N(Cc3cccc(N4CC(N5CCN(CC)CC5)C4)n3)C[C@@H]2N1C(=O)NCc1ccccc1 — treatment-related adverse events (item: Nausea; advanced solid tumour patients; oral, 100 mg twice daily, expansion part, any grade): 77.8%
COc1ccc2c(=O)n(C)c(-c3ccccc3)nc2c1 — tissue/plasma ratio (Sprague-Dawley rat, male, small intestine; oral, 30 mg/kg, 0.5 h; relative to: small intestine over plasma): 7350
O=C(N[C@H](Cc1c[nH]c2ccccc12)C(=O)Nc1ccncc1)c1ccc(-c2ccc(F)c(Cl)c2)cc1F — concentration (Swiss Webster mouse, female, intestine; oral, 50 mg/kg, 2 h, 20% Kolliphor vehicle): 55 µM
O=C(CCCN1CC=C(n2c(=O)[nH]c3ccccc32)CC1)c1ccc(F)cc1 — heart rate (male Hartley guinea pigs, anaesthetized; intravenous, 0.3 mg/kg group, baseline before infusion): 233 ± 0.4 beats/min
CO[C@H]1C[C@@H]2CC[C@@H](C)[C@@](O)(O2)C(=O)C(=O)N2CCCC[C@H]2C(=O)O[C@H]([C@H](C)C[C@@H]2CC[C@@H](OC(=O)NCCOCCOCCOCCOCCOCCOCCOCCOCCC(=O)N3CCc4cc(Cn5nc(-c6ccc7oc(N)nc7c6)c6c(N)ncnc65)ccc4C3)[C@H](OC)C2)C[C@@H](O)[C@H](C)/C=C(\C)[C@@H](O)[C@@H](OC)C(=O)[C@H](C)C[C@H](C)/C=C/C=C/C=C/1C — AUC(0-t) (human, plasma; intravenous, 12 mg, cycle 1 day 1, arithmetic mean): 0.727 µg·h/mL
COc1ccnc(C(=O)NC(CO)C(=O)O)c1O (racemic) — DT50 (aerobic soil incubation; soil; worst-case terminal value, for exposure modelling): 105 days
CN[C@H](CC(C)C)C(=O)N[C@H]1C(=O)N[C@@H](CC(N)=O)C(=O)N[C@H]2C(=O)N[C@H]3C(=O)N[C@H](C(=O)N[C@H](C(=O)O)c4cc(O)cc(O)c4-c4cc3ccc4O)[C@H](O)c3ccc(c(Cl)c3)Oc3cc2cc(c3O[C@@H]2O[C@H](CO)[C@@H](O)[C@H](O)[C@H]2O[C@H]2C[C@](C)(N)[C@H](O)[C@H](C)O2)Oc2ccc(cc2Cl)[C@H]1O — absorption rate ratio (male C57BL/6J mouse, brain; intravenous bolus, 35 mg/kg; relative to: thalamus over hippocampus): > 3.5
CC[C@@H]([C@H](C)O)n1ncn(-c2ccc(N3CCN(c4ccc(OC[C@@H]5CO[C@@](Cn6cncn6)(c6ccc(F)cc6F)C5)cc4)CC3)cc2)c1=O — MRT(0-t) (Sprague-Dawley rats, plasma; oral, 40 mg/kg, with: zanubrutinib 16 mg/kg): 12.6 ± 0.69 h
CCCCC[C@H](O)CC[C@@H]1[C@H]2Cc3cccc(OCC(=O)O)c3C[C@H]2C[C@H]1O — geometric mean AUC(0-last) (LC-MS/MS; female Japanese PAH patients, plasma; inhaled, 54 µg): 0.00084 µg·h/mL
CCCCc1oc2ccccc2c1C(=O)c1cc(I)c(OCCN(CC)CC)c(I)c1 — heart rate (male Hartley guinea pigs, anaesthetized; intravenous, 10 mg/kg over 10 min, after infusion): 200 ± 0.7 beats/min
CC(C)C[C@H](NC(=O)CNC(=O)c1cc(Cl)ccc1Cl)B(O)O — adverse events grade 3 (newly diagnosed multiple myeloma patients; oral, dose not given, Nausea, maintenance): 6%
N[C@@H]1c2ccccc2OC12CCN(c1cnc3c(N4CCCc5ncccc54)n[nH]c3n1)CC2 — AUC(0-tau) (advanced metastatic solid tumour patients, plasma; oral, 40 mg once daily, cycle 1 day 15, geometric mean): 8.21 µg·h/mL
CCc1c(-c2ccccc2)c(-c2ccccc2)nn1-c1ccccc1-c1cccc(OCC(=O)O)c1 — tissue concentration (Sprague-Dawley rat, -Brain; oral, 10 mg/kg, 4 h): 58.6 ng/g and 116 ng/g
O=C(CCCCCCC(=O)Nc1ccc(CC[18F])cc1)NO — tissue uptake (athymic nu/nu male mice, LNCaP xenograft, bone; intravenous, 0.5 h): 9.6 ± 2.18 %ID/g
Cc1ccc(C(=O)N(CCCN)C(c2nc3snc(C)c3c(=O)n2Cc2ccccc2)C(C)C)cc1 (centres unmarked) — patients with adverse event (pneumonia grade ≥3 (CTCAE); human patients; intravenous, 4 mg/day): 0%
Cc1ccc(Sc2ccccc2N2CCNCC2)c(C)c1 — participants with TEAE (item: blood in urine; healthy adult women; oral, 5 mg daily, 12 days): 0%
O=C(Nc1nc2cccc(-c3ccc(CN4CCS(=O)(=O)CC4)cc3)n2n1)C1CC1 — treatment-emergent adverse events (item: nausea; human rheumatoid arthritis patients; oral, 30 mg once daily, 4 weeks, regardless of relatedness): 5.9%
COc1ccc([C@@H](O)c2cc(-c3ncnc4cc(N5CCOCC5)ccc34)c(F)cc2Cl)nn1 — lymphopenia TEAE incidence (locally advanced rectal cancer patients; 50 mg, with: capecitabine and radiotherapy): 0%
Cc1ccc([C@@H]2O[C@H](CO)[C@@H](O)[C@H](O)[C@H]2O)cc1Cc1ccc(-c2ccc(F)cc2)s1 — urinary calcium excretion change (Japanese type 2 diabetes patients; 400 mg, day 18, 24 h urine collection; relative to: baseline): -11.1 mg
O=C(OC(C(F)(F)F)C(F)(F)F)N1CCN(Cc2cccc(Oc3ccccc3)c2)CC1 — Ktrans (PET blocking study; rhesus monkey, brain HIP; 0.3 mg/kg, compound pretreatment, with: [18F]T-401 tracer): 0.0635 min⁻¹
O=C1c2ccncc2C(=O)c2c1[nH]c1ccccc21 — tissue concentration (Sprague-Dawley rat, male, lung; oral, 1 mg/kg, 24 h): 0.001 ± 0.002 nmol/mg
[18F]c1ccc(-c2ccc3c(c2)[nH]c2ccncc23)cn1 — uptake (ex vivo biodistribution; normal B6SJL mice, caudate nucleus; intravenous, 30 min): 0.483 ± 0.148 SUV
Cc1cc2sc(N)nc2c2cccnc12 — last concentration (female BALB/c mice, plasma; intraperitoneal, 30 mg/kg, 24 h): 33.3 ng/mL
O=C(O)CCC(=O)O.[2H]C([2H])([2H])Oc1cc(C)c2[nH]ccc2c1CN1CC[C@@H](C2CC2)C[C@H]1c1ccc(C(=O)O)cc1 — subjects with TEAE Appendicitis (multiple ascending dose; healthy Chinese subjects; 300 mg once daily): 0%
C[C@@H](N)C1CCN(S(=O)(=O)c2cccc3cnccc23)CC1 — treatment-related TEAEs (healthy volunteers; 25 mg and 250 mg combined, fasted): 33.3%
N#Cc1ccc2c(c1)[C@H]1CCCN(C(=O)c3ccc4[nH]cnc4c3)[C@H]1C2 — DHEA-S level (human, male; 160 mg, day 15): 9.5 µmol/L
CCCCOC(=O)N1CCN(C(=O)[C@H](CP(=O)(O)O)NC(=O)c2cc(N3CC[C@H](OC)C3)nc(-c3ccccc3)n2)CC1 — change from baseline (item: haematocrit; human, blood; 16 mg, 24 h post-dose): 0 ± 0.021 L/L
C[C@@H]1CCO[C@H]2Cn3cc(C(=O)NCc4ccc(F)cc4F)c(=O)c(O)c3C(=O)N12 — trough concentration (C24) (human paediatric patients, weight sample D to under sample E kg, plasma; oral, 50 mg film-coated tablet, 24 h, steady state, geometric mean, population PK post-hoc, N 17): 828 ng/mL
CCN(c1cc(-c2ccc(CN3CCOCC3)cc2)cc(C(=O)NCc2c(C)cc(C)[nH]c2=O)c1C)C1CCOCC1 — organ weight (mouse xenograft, liver; dose not given): 648 mg
CN(C(=O)n1cnc(-c2ccc[n+]([O-])c2)c1)[C@H]1CC[C@H](O)CC1 — tissue concentration (rat, cortex; oral, 10 mg/kg single dose, 24 h): 8.7 ± 0.3 ng/g
CC/C(=C(\c1ccccc1)c1ccc(OCCN(C)C)cc1)c1ccccc1 — heart rate (male Hartley guinea pigs, anaesthetized; intravenous, 10 mg/kg over 10 min, after infusion): 188 ± 0.6 beats/min
O=Cc1ccc(O)c(O)c1 — CSF concentration (human CSF; concentration not given, mean): not detected
Oc1ccc(/C=C/c2cc(O)cc(O)c2)cc1 — D-BIL level (rat, azoxymethane-injected, blood; in vivo, 100 mg/kg, at sacrifice): 0.02 mg/dL and 0.01 mg/dL
CCc1cc(C(=O)NC)c2nccc(N3CCc4c(cc(Cn5ccnc5)cc4-c4cn(C)nc4C(F)(F)F)C3=O)c2c1 — change in clinical chemistry or haematology parameter (item: MPV; Sprague Dawley rat; oral, 100 mg/kg once daily, 7 days; relative to: vehicle): -0.62%
NC[C@@]1(CC(=O)O)[C@@H]2CC[C@H]3C[C@@H]2[C@@H]1C3 — unbound Cmax (humans with normal renal function, plasma; geometric mean): 0.324 µg/mL
O=C1NCCc2nc(OCc3cccc(F)c3)ccc21 — leg weakness score (modified Irwin test; Sprague-Dawley rat, male; oral, 100 mg/kg, 30 min; higher = stronger effect): 0.2
NCc1ccc(-c2nn(Cc3ccncc3)c3ccccc23)o1 — volume of distribution at steady state (male CD1 mouse, plasma; intravenous, 5 mg/kg): 17.3 L/kg
CCOc1c([C@H](C)n2nc(C)c3c(N)ncnc32)cc(Cl)c(F)c1[C@@H]1CNC(=O)C1 — patients (item: QTcF change above 60 ms; previously treated B-cell malignancy; oral, 5 mg once daily, baseline QTcF ≤450 ms; relative to: baseline): 0%
CCCCCCC#Cc1cncc(-c2nnc(SCc3ccc([N+](=O)[O-])o3)n2C2CC2)c1 — CC50 (African green monkey cells; 72 h): 7.8 ± 0.476 µM
NC1(C(=O)N[C@@H](CCO)c2ccc(Cl)cc2)CCN(c2nc[nH]c3nccc2-3)CC1 — incidence of Dyspepsia (metastatic CRPC patients; 320 mg b.i.d., grade 3 to 4, treatment-related, with: enzalutamide 160 mg daily): 0%
O=C(O)C[C@H](O)C[C@H](O)/C=C/c1c(C2CC2)nc2ccccc2c1-c1ccc(F)cc1 — half-life (FVB wild-type mouse, plasma; oral, 5 mg/kg, with: rifampin 20 mg/kg oral): 1.9 h
O=C(COc1ccc(Cl)cc1)NC12CC(c3nnc([C@H]4C[C@@H](OC(F)(F)F)C4)o3)(C1)C2 — adverse event incidence (item: Myalgia; human; oral, 100 mg once daily, 14 days): 14.3%
COc1ncc(-c2nc3c(n2C(C)C)[C@H](c2ccc(Cl)cc2)N(c2cc(Cl)cn(C)c2=O)C3=O)c(OC)n1 — median half-life (human patients, plasma; oral, 200 mg, high-dose arm, cycle 1 day 1): 18.5 h
O=C(O)C=Cc1ccc(OS(=O)(=O)O)c(O)c1 — CSF concentration (human CSF; concentration not given, mean): not detected
COc1cccc(OC)c1-c1cc(C(=O)NC2(C(=O)O)C3CC4CC(C3)CC2C4)nn1-c1ccc(C(=O)N(C)CCCN(C)CCCN(C)C(=O)CN2CCN(CC(=O)[O-])CCN(CC(=O)[O-])CCN(CC(=O)[O-])CC2)cc1C(C)C.[177Lu+3] (centres unmarked) — tumour-to-stomach ratio (mouse HT-29 xenograft; 4 h, biodistribution; relative to: tumour over stomach): 21.5
CCN1/C(=C/C(C)=O)Sc2ccc(F)cc21 — heart rate, blood pressure, ECG (cynomolgus monkey; oral, 100 mg/kg; relative to: vehicle): no effect
C[C@@H](Nc1cc(F)cc(F)c1)c1cc(C(=O)N(C)C)cc2c(=O)cc(N3CCOCC3)oc12 — related serious adverse events (item: Neutropenia; advanced solid tumour patients; oral, dose not given, dose finding): 1.6%
Cn1cnc2c(F)c(Nc3ccc(Br)cc3Cl)c(C(=O)NOCCO)cc21 — peripheral volume of distribution (human, plasma; oral, dose not given, transit compartment absorption): 190 L
CCOCc1nc(O)c(-c2nnc(Cc3ccc(Cl)cn3)o2)c(O)c1-c1c(OC)cccc1OC — plasma concentration (anaesthetised rat, plasma; intravenous infusion, 1 µg/kg/min, 5 min): 0.047 ± 0.004 µM
CC(C)(C)c1ccc(C(O)CCCN2CCC(C(O)(c3ccccc3)c3ccccc3)CC2)cc1 (centres unmarked) — heart rate (male Hartley guinea pigs, anaesthetized; intravenous, 1 mg/kg group, baseline before infusion): 221 ± 0.5 beats/min
O=C(O)c1ccc(O)c(O)c1O — CSF concentration (human CSF; concentration not given, mean): not detected
O=C(Nc1cnccc1Cl)N1CCN(Cc2ccc3c(c2)OC(F)(F)O3)CC1 — volunteers with adverse event (item: Headache; healthy elderly humans; 100 mg once daily, 10 days): 33.3%
CN(C(=O)n1cnc(-c2cccnc2)c1)[C@H]1CC[C@H](O)CC1 — concentration (Wistar rat, medulla oblongata; oral, 10 mg/kg/day of BIA 10-2474, 72 h, repeated 5 days): 13.4 ± 1.4 ng/g
CO[C@@H]1[C@H](O)[C@@H](CO)O[C@H]1n1c([N+](=O)[O-])nc2c(=O)[nH]c(N)nc21 — nucleoside remaining fraction (depurination, RP-HPLC; citrate-phosphate buffer 0.5 mM; 2580 min, pH 7, 37 °C): 0.593
CCCCCCCCN(Cc1ccccc1)Cc1ccc(CNC(=O)c2csc3nc[nH]c(=O)c23)cc1 — EC50 (haemolysis; human red blood cells; 1 h, 37 °C): > 100 µM

A few entries again:
CC[C@@H]([C@H](C)O)n1ncn(-c2ccc(N3CCN(c4ccc(OC[C@@H]5CO[C@@](Cn6cncn6)(c6ccc(F)cc6F)C5)cc4)CC3)cc2)c1=O — MRT(0-t) (Sprague-Dawley rats, plasma; oral, 40 mg/kg, with: zanubrutinib 16 mg/kg): 12.6 ± 0.69 h
O=Cc1ccc(O)c(O)c1 — CSF concentration (human CSF; concentration not given, mean): not detected
O=C(N[C@H](Cc1c[nH]c2ccccc12)C(=O)Nc1ccncc1)c1ccc(-c2ccc(F)c(Cl)c2)cc1F — concentration (Swiss Webster mouse, female, intestine; oral, 50 mg/kg, 2 h, 20% Kolliphor vehicle): 55 µM
CCN1/C(=C/C(C)=O)Sc2ccc(F)cc21 — heart rate, blood pressure, ECG (cynomolgus monkey; oral, 100 mg/kg; relative to: vehicle): no effect
CCCCCCCCN(Cc1ccccc1)Cc1ccc(CNC(=O)c2csc3nc[nH]c(=O)c23)cc1 — EC50 (haemolysis; human red blood cells; 1 h, 37 °C): > 100 µM
CCCCCCC#Cc1cncc(-c2nnc(SCc3ccc([N+](=O)[O-])o3)n2C2CC2)c1 — CC50 (African green monkey cells; 72 h): 7.8 ± 0.476 µM
CO[C@@H]1[C@H](O)[C@@H](CO)O[C@H]1n1c([N+](=O)[O-])nc2c(=O)[nH]c(N)nc21 — nucleoside remaining fraction (depurination, RP-HPLC; citrate-phosphate buffer 0.5 mM; 2580 min, pH 7, 37 °C): 0.593
